Experimental data of several laboratories.
Route: oral

The renal clearance of `CC(C)(Sc1ccncc1-c1ccc(C#N)c2ccccc12)C(=O)O` is reported as 7.87 mL/min (male, urine; 15 mg, 72 h, moderate renal impairment).
`C[C@@H]1[C@H](c2c(F)ccc(F)c2F)C[C@H](NC(=O)c2cnc3c(c2)C[C@@]2(C3)C(=O)Nc3ncccc32)C(=O)N1CC(F)(F)F` has a renal clearance of roughly 20 mL/min (healthy men; 50 mg).
For `Nc1cc(F)ccc1NC(=O)c1ccc(CNC(=O)/C=C/c2cccnc2)cc1`, the renal clearance was 28.2 mL/min (Japanese patients, urine; 40 mg twice weekly, cycle 1 day 25).
With `O=C(NC[C@H]1CN(c2ccc(N3CCOCC3=O)cc2)C(=O)O1)c1ccc(Cl)s1` the renal clearance was 23.3 mL/min (mild renal impairment patients; 10 mg, arithmetic mean).
For `COc1ccc(-n2nc(C(N)=O)c3c2C(=O)N(c2ccc(N4CCCCC4=O)cc2)CC3)cc1`, the renal clearance was roughly 20 mL/min (healthy Chinese subjects; 10 mg single and multiple).
With `CS(=O)(=O)n1cc2c(n1)CN([C@H]1CO[C@H](c3cc(F)ccc3F)[C@@H](N)C1)C2` the renal clearance was 30 mL/min (healthy male; 10 mg single dose, fasted, geometric mean).
`CC(C)(Sc1ccncc1-c1ccc(C#N)c2ccccc12)C(=O)O` — result for “renal clearance (0-24 h)”: 21.8 mL/min (healthy Japanese males; 2.5 mg once daily, day 12, fed, geometric mean).
For `O=C(c1cccnc1-c1ccncc1)N1CCC(O)(Cc2ccccc2)CC1`, the renal clearance was 5.83 mL/min (healthy subjects, urine; 300 mg twice daily, day 1).

Some of these lines once more:
With `CS(=O)(=O)n1cc2c(n1)CN([C@H]1CO[C@H](c3cc(F)ccc3F)[C@@H](N)C1)C2` the renal clearance was 30 mL/min (healthy male; 10 mg single dose, fasted, geometric mean).
